Results gathered from unrelated publications.
Each numbered part is a random draw from the data of one study; scales do not carry over between parts.
Sequence of UniProt P47775 (whole entry, looked up): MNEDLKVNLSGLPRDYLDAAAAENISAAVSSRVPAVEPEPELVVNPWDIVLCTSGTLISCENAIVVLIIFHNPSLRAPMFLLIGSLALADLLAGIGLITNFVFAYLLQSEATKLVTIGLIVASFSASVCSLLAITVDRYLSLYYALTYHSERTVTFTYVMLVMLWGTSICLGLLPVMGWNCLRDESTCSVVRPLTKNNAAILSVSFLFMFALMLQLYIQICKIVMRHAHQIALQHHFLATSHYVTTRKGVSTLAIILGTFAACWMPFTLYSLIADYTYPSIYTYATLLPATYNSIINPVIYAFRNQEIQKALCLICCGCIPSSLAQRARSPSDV
Sequence of UniProt P32246 (whole entry, looked up): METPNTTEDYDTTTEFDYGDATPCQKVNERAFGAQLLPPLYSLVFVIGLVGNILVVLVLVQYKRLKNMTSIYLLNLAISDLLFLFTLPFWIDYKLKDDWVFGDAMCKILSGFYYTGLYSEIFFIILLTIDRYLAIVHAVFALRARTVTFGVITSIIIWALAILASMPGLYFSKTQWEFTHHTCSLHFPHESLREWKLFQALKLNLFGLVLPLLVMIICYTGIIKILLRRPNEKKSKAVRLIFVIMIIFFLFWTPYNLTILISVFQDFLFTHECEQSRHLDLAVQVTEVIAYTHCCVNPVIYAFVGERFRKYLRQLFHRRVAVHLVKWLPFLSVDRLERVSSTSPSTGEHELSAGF
Sequence of UniProt P32238 (whole entry, looked up): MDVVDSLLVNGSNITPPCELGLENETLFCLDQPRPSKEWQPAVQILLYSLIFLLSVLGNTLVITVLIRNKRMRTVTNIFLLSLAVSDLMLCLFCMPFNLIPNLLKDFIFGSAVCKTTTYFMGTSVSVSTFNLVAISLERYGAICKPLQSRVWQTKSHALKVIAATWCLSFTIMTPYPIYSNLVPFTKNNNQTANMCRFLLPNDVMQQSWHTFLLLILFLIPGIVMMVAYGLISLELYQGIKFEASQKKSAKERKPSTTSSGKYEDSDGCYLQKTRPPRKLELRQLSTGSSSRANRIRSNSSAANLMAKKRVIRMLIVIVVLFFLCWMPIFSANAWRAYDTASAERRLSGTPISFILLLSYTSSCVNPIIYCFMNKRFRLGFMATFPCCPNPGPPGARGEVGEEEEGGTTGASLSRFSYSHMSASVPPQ
Sequence of UniProt P30550 (whole entry, looked up): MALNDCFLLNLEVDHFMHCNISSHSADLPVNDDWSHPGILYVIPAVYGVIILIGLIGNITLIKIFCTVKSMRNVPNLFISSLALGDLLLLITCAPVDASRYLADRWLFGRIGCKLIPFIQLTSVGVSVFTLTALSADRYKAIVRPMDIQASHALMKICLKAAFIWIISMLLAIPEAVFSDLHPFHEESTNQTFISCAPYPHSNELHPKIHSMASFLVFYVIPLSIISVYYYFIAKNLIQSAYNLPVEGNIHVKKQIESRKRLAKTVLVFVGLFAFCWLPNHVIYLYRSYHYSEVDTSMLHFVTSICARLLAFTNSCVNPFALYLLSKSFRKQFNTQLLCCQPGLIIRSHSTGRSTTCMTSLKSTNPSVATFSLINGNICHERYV
Sequence of UniProt Q8WXD0 (whole entry, looked up): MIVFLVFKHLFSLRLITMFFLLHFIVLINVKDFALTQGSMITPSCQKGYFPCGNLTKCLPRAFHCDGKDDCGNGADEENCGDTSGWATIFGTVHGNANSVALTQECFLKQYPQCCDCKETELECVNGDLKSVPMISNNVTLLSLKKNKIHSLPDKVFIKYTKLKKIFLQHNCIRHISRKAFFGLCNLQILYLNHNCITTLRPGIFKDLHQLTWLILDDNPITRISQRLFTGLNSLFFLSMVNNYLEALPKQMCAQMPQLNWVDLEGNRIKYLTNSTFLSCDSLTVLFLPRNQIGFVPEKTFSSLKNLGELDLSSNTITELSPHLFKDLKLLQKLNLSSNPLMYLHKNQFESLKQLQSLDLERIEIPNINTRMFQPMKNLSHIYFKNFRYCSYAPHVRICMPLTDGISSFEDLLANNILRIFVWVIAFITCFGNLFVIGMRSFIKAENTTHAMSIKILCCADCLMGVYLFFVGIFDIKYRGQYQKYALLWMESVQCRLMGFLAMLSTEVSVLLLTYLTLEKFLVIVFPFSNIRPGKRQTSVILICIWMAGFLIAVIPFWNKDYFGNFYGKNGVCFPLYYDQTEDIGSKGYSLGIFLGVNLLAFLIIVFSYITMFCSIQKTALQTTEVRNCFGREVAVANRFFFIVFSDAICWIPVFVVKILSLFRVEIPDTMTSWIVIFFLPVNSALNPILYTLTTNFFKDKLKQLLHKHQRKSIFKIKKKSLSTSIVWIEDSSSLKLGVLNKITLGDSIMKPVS

Sample 1
Target: Homeodomain-interacting protein kinase 2 (HIPK2, Homo sapiens, UniProt Q9H2X6)
Sequence of UniProt Q9H2X6 (whole entry, looked up): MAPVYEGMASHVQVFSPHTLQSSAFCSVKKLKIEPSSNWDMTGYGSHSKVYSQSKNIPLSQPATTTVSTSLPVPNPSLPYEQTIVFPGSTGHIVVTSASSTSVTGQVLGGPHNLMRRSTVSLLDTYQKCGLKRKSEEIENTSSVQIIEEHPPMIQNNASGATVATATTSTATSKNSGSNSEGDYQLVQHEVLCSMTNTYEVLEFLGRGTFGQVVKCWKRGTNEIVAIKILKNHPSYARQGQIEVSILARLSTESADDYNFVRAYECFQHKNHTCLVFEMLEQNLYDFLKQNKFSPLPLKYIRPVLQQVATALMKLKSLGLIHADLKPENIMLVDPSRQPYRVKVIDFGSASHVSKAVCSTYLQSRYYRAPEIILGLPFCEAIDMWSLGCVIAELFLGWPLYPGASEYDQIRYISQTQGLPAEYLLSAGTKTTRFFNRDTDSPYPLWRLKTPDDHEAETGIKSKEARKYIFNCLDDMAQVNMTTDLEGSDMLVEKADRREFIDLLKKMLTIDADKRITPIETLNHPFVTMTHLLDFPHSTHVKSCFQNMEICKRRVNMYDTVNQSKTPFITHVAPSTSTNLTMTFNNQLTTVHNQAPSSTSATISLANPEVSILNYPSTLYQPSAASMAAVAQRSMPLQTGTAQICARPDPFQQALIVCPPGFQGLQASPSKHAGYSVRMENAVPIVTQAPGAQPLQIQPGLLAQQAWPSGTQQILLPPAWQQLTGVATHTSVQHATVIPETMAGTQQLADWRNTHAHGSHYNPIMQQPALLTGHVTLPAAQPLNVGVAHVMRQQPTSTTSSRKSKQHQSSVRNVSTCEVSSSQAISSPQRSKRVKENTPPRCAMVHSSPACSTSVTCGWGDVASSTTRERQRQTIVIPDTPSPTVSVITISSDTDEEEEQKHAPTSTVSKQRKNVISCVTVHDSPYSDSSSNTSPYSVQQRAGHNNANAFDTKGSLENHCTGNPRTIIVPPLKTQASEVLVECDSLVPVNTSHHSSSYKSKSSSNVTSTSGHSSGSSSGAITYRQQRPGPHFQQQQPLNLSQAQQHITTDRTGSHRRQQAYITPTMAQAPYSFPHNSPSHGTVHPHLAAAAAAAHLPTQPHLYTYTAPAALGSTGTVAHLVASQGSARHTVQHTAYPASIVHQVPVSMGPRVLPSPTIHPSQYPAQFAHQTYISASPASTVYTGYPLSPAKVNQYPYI
Observed: enzyme activity
Mode: inhibitor
Tested at: 0.5 µM
Baseline: control
With `c1ccc(-c2cnc(Nc3ccc(OCCN4CCCC4)cc3)s2)cc1` the remaining activity was 97.5%.
With `c1ccc(-c2[nH]ncc2-c2ccnc3ccccc23)nc1` the remaining activity was 91.3%.
For `Nc1cccc(-c2cc3c(Oc4cccc(O)c4)ncnc3[nH]2)c1`, the remaining activity was 100%.
The remaining activity of `CN([C@@H](Cc1ccc(OS(=O)(=O)c2cccc3cnccc23)cc1)C(=O)N1CCN(c2ccccc2)CC1)S(=O)(=O)c1cccc2cnccc12` is reported as 109%.
`O=C1c2ccccc2-c2n[nH]c3cccc1c23` has a remaining activity of 97.7%.
With `CN(C)C[C@H]1CCn2c(c(C3=C(c4cn(C)c5ccccc45)C(=O)NC3=O)c3ccccc32)C1` the remaining activity was 94.1%.
The remaining activity of `O=C1C(Cl)=C(N2C(=O)CCC2=O)C(=O)c2ccccc21` is reported as 104%.
For `COc1cc2ncnc(Nc3ccc(O)c(Br)c3)c2cc1OC`, the remaining activity was 102%.
For `COc1cc2c(cc1OC)-c1[nH]nc(Nc3cccc(F)c3)c1C2`, the remaining activity was 103%.
`Ic1cccc(CSc2nnc(-c3ccncc3)o2)c1` has a remaining activity of 102%.
`C[C@@H]1CCN(C(=O)CC#N)C[C@@H]1N(C)c1ncnc2[nH]ccc12` gave a remaining activity of 96.9%.
`Cc1cc2ncc(-c3ccccc3)nc2cc1C` gave a remaining activity of 97%.
The remaining activity of `CCN(CC)C(=O)c1ccc(Nc2nc(OCC3CCCCC3)c3[nH]cnc3n2)cc1` is reported as 92.4%.
With `O=c1cc(-c2cccc3c2Sc2ccccc2S3)oc(N2CCOCC2)c1` the remaining activity was 105%.
`Cc1nc2cc3nc(-c4cccs4)cnc3cc2n1C` has a remaining activity of 107%.
With `COc1cc2ncnc(Nc3cccc(Cl)c3)c2cc1OC` the remaining activity was 88.8%.
`Cc1cn(-c2cc(NC(=O)c3ccc(C)c(Nc4nccc(-c5cccnc5)n4)c3)cc(C(F)(F)F)c2)cn1` has a remaining activity of 92.1%.
For `CCN(CC)CCNC(=O)c1c(C)[nH]c(/C=C2\C(=O)Nc3ccc(F)cc32)c1C`, the remaining activity was 41.3%.

Sample 2
Structure (SMILES): N=C(N)NC(=O)c1cnn(-c2cccc3ncccc23)c1C1CC1
Observed: β-arrestin recruitment
Mode: agonist
Technique: PRESTO-Tango
Tested at: 10 µM
Baseline: untreated
N-formyl peptide receptor 3 (Homo sapiens, UniProt P25089) — “fold over basal”: 0.89 fold.
QRFPR (Homo sapiens, UniProt Q96P65) — “fold over basal”: 0.96.
It gave 1.17 for “fold over basal” (CCKAR (Homo sapiens, UniProt P32238)).
CCR1 (Homo sapiens, UniProt P32246) — “fold over basal”: 0.77.
The “fold over basal” was 1.04 (Relaxin receptor 2 (RXFP2, Homo sapiens, UniProt Q8WXD0)).
For G-protein coupled receptor 12 (GPR12, Homo sapiens, UniProt P47775): “fold over basal” read 1.42.
It gave 0.88 fold for “fold over basal” (GRPR (Homo sapiens, UniProt P30550)).

Sample 3
Structure (SMILES): C=CCc1ccc(O)c(-c2cc(CC=C)ccc2O)c1
ANO1 del476-501/K629A: Anoctamin-1 (ANO1, Homo sapiens, UniProt Q5XXA6, del476-501/K629A)
Sequence of UniProt Q5XXA6 (whole entry, unmodified, looked up): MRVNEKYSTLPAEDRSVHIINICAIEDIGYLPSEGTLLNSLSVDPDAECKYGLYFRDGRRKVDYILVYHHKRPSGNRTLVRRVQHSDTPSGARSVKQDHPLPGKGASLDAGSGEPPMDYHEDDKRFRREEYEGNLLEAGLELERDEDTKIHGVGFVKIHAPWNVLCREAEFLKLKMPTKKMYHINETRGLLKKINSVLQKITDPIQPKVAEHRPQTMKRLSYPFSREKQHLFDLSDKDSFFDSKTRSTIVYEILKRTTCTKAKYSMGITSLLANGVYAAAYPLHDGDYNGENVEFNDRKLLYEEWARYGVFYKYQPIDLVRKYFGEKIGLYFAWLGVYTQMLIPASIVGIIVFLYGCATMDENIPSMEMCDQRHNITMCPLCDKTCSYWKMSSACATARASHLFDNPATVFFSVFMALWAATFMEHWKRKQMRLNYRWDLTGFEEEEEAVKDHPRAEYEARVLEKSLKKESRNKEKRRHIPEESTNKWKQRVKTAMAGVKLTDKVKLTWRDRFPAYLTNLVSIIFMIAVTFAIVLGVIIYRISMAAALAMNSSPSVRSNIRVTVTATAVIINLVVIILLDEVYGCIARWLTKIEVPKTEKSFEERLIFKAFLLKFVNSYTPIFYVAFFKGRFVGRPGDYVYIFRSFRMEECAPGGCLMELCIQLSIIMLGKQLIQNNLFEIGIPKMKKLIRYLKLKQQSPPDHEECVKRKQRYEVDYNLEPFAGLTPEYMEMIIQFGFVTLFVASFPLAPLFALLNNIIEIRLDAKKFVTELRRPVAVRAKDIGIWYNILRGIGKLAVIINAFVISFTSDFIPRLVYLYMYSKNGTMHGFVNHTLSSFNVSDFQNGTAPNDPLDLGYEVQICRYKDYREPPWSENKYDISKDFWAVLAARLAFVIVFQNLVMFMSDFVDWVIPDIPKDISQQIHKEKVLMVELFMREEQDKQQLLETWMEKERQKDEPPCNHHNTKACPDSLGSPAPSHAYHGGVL
ANO1 del476-501/R541A: Anoctamin-1 (ANO1, Homo sapiens, UniProt Q5XXA6, del476-501/R541A)
The normalized current was 0.964 (ANO1 del476-501/K629A; chloride current, inhibitor, whole-cell voltage clamp; 10 µM; baseline: untreated).
The normalized current was 0.517 (ANO1 del476-501/R541A; chloride current, inhibitor, whole-cell voltage clamp; 100 µM, R515A mutant).
It gave 0.846 for normalized current (Anoctamin-1 (ANO1, Homo sapiens, UniProt Q5XXA6); chloride current, inside-out patch clamp; 30 µM, membrane voltage 100 mV).
It gave 0.499 for normalized current (Anoctamin-1 (ANO1, Homo sapiens, UniProt Q5XXA6, del476-501/M544A); chloride current, inhibitor, whole-cell voltage clamp; 100 µM, M518A mutant; baseline: untreated).
It gave 0.594 for normalized current (Anoctamin-1 (ANO1, Homo sapiens, UniProt Q5XXA6, del476-501/E649A); ion current, inside-out patch clamp; 30 µM, E623A mutant at 80 mV).
ANO1 del476-501/R541A; chloride current, inside-out patch clamp; 30 µM, membrane voltage 60 mV — normalized current: 0.382.
The normalized current was 0.754 (ANO1 del476-501/K629A; chloride current, inside-out patch clamp; 30 µM, membrane voltage 100 mV).

Sample 4
Target: Alpha-2B adrenergic receptor (ADRA2B, Homo sapiens, UniProt P18089)
Sequence of UniProt P18089 (whole entry, looked up): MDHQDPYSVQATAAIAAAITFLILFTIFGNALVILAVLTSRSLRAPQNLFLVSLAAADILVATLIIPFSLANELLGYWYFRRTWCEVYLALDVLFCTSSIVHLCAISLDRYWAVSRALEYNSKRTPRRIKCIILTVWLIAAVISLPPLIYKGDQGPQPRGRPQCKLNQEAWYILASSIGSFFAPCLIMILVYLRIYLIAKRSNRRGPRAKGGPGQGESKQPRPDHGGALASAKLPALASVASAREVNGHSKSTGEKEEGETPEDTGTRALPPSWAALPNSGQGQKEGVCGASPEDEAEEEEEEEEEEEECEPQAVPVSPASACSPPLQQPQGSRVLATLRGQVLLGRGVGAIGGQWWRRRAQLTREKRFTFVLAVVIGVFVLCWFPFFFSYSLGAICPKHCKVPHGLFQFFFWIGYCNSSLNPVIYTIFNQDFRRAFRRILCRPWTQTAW
Observed: ligand displacement
Tested at: 10 µM
`Nc1cnc(N2CCc3cc(S(=O)(=O)Nc4c(F)cc(Cl)cc4F)cc(N4CCCC4=O)c32)nc1` gave an inhibition of 0.99%.
With `COc1ccc2cc(OCC3(C(=O)O)CN(C(=O)c4ccc(F)cc4)C3)ccc2c1` the inhibition was 9.24%.
With `CCC(=NO)C(C)=Cc1ccc(F)c(C)c1` the inhibition was 33.1%.
`COCCOc1nc(-c2ccc(Cl)nc2)nc2c1CN(C(=O)c1ncn3ccccc13)CC2` has an inhibition of -2.32%.
For `C[C@@H](c1cccc(C#N)c1)n1cc(Cl)cc(C(N)=O)c1=N`, the inhibition was 0.7%.
For `CN1CCN(c2ccnc(NCCc3ccccc3)n2)CC1`, the inhibition was 98%.
`COc1cc(-c2cn(C3CCc4c(F)cccc4N(CC(F)(F)F)C3=O)nn2)ccc1-n1cnc(C)c1` (stereo not shown) gave an inhibition of 31.1%.
For `CN([C@@H]1CCc2c(CC(=O)O)c3ccccc3n2C1)S(=O)(=O)c1ccc(F)cc1`, the inhibition was 12.7%.

For quick reference, copied from above (sample 4):
With `COc1ccc2cc(OCC3(C(=O)O)CN(C(=O)c4ccc(F)cc4)C3)ccc2c1` the inhibition was 9.24%.
With `CCC(=NO)C(C)=Cc1ccc(F)c(C)c1` the inhibition was 33.1%.
`COCCOc1nc(-c2ccc(Cl)nc2)nc2c1CN(C(=O)c1ncn3ccccc13)CC2` has an inhibition of -2.32%.
For `C[C@@H](c1cccc(C#N)c1)n1cc(Cl)cc(C(N)=O)c1=N`, the inhibition was 0.7%.
